Assay results pooled from the literature.
Numbered parts are unrelated; each lists some results of a single study. Positions count from the first letter of the parent shown.

Study 1 — target: CCNE1, cyclin fold, Cln2 fusion (human); method: yeast growth competition, sequencing; matrix: yeast; setting: strong parent motif; relative to: not given; direction: higher = stronger binding
Parent: viral docking peptide; KGVKRKLFAEDSS; partner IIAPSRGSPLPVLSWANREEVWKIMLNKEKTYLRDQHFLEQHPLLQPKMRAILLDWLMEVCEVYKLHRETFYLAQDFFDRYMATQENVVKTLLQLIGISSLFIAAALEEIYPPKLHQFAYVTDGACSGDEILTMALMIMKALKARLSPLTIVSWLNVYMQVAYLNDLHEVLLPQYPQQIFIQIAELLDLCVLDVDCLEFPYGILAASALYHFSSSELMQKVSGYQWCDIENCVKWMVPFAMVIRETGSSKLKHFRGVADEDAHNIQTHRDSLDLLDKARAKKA
Substitution	normalised enrichment score
A9E	7.37
D11N	7.26
K4A	6.74
E10L	6.71
D11F	7.07
S12T	7.62
R5L	0.599
F8T	0.0488

Study 2 — read-out: binding; method: phage display NGS; form: peptide; tested at: concentration not given; relative to: input library
Target: UDP-N-acetylglucosamine--peptide N-acetylglucosaminyltransferase 110 kDa subunit (OGT, Homo sapiens, UniProt O15294)
Sequence of UniProt O15294 (whole entry, looked up): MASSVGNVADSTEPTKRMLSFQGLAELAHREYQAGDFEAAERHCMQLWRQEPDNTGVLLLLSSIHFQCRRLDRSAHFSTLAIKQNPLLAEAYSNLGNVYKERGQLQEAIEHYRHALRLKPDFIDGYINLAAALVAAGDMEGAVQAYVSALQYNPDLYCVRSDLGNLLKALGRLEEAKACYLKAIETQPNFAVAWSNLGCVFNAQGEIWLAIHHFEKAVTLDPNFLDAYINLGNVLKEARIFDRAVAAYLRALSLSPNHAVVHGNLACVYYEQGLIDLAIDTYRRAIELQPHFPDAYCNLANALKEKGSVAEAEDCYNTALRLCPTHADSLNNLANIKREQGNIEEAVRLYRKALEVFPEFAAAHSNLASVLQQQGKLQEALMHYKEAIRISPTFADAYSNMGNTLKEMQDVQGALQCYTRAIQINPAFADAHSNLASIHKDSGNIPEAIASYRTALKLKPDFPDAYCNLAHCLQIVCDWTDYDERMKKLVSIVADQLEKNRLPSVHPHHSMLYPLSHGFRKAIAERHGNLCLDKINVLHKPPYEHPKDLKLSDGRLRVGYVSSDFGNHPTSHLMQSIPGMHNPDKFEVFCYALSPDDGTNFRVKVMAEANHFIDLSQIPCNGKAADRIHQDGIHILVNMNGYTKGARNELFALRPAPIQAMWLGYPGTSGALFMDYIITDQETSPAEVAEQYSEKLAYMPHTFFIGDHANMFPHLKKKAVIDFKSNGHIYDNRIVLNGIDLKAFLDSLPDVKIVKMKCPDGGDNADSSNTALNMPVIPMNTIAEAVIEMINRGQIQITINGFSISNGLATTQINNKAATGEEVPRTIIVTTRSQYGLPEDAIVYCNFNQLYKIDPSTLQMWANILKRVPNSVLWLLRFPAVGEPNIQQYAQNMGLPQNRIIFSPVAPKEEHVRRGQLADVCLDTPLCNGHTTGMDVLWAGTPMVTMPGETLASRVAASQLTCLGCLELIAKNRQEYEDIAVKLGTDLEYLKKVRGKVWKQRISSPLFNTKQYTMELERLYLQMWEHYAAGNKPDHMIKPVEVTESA
Molecule	enrichment fold change
VADRFLPIYQLTTRG	6.03
RDTEIIFLPQYIIGY	14.9
ADFQLTYKPLYQIVA	3.3
SRQHHHYVQAMPYRD	2.38
QWQHQTRHVHIPHNH	6.8
QQQYRDYNPKYIIHY	9.11
TAPFYPPAYAI	1.12
ESHQYSFKPMYQIVI	3.3

Study 3 — target: tungstate, free oxyanion; method: microfluidic competitive inhibition; matrix: in vitro, cell-free expressed; tested at: not given; direction: lower = stronger binding
Setting: derived from inhibition constants, unchanged parent 2230 nM
Parent: PafA, mature enzyme, eGFP fusion (Elizabethkingia meningoseptica, UniProt Q9KJX5); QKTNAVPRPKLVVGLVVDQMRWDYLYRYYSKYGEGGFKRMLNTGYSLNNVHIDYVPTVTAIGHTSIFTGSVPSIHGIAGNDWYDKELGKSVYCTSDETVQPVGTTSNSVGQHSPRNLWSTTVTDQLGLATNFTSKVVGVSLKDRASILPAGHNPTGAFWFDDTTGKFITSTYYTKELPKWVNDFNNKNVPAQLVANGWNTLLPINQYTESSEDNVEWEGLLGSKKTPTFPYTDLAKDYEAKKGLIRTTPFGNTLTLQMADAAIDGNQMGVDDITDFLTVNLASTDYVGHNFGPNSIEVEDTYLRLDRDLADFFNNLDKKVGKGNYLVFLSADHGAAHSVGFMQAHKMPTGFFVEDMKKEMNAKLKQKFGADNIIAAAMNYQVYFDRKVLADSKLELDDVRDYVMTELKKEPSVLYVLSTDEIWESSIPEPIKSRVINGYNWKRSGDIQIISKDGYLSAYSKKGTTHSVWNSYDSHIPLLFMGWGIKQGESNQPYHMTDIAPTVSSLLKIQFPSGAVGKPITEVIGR
Substitution	oxyanion analog dissociation constant
T164G	1480 nM
Y92V	45600 nM
T169G	1150 nM
P477G	3760 nM
E297G	754 nM
V298A	2370 nM
D183G	2250 nM
Y459G	1790 nM

Other studies, line by line
SMILES	cell line	test	system	setting	scale	measurement	result
CC(C)(C)C(=O)OCOP(=O)(COCCn1cnc2c(N)ncnc21)OCOC(=O)C(C)(C)C	HEK-293T	pseudovirus infection, FDA-approved drug library counter-screen	VSV pseudotyped with VSV-G	10 µM, 16 h	relative to: vehicle-treated	GFP-positive cells	106%

Some of these lines once more (study 1):
Substitution	normalised enrichment score
D11N	7.26
K4A	6.74
